Results of several laboratories.
Every numbered part comes from another study and shows a few of its results, in no order.

Study 1
Target: His6 tag
Technique: AlphaScreen counter screen
Concentration: concentration not given
SMILES	inhibition
COc1cccc(C(=O)c2sc(Nc3ccc(F)c(Cl)c3)nc2N)c1	3.15%
Nc1ncnc2c1c(COc1cccc(Cl)c1)nn2C1CCOCC1	4.35%
C=CC(=O)Nc1cc2c(Nc3ccc(F)c(Cl)c3)ncnc2cc1OCCCN1CCOCC1	-5.65%
Cc1c(OCC(F)(F)F)ccnc1C[S+]([O-])c1nc2ccccc2[nH]1 (stereo not drawn)	-3.85%
O=C(NCc1ccc(NC(=O)C2CC2)cc1)c1n[nH]c2ccccc12	3.4%
O=C(Nc1ccc2[nH]ncc2c1)c1c(F)c(F)c(F)c(F)c1F	2%
O=C(Nc1ccc2[nH]ncc2c1)c1ccc(Cl)cc1Cl	2.8%

Study 2
Target: Histamine H4 receptor (HRH4, Homo sapiens, UniProt Q9H3N8)
Sequence of UniProt Q9H3N8 (whole entry, looked up): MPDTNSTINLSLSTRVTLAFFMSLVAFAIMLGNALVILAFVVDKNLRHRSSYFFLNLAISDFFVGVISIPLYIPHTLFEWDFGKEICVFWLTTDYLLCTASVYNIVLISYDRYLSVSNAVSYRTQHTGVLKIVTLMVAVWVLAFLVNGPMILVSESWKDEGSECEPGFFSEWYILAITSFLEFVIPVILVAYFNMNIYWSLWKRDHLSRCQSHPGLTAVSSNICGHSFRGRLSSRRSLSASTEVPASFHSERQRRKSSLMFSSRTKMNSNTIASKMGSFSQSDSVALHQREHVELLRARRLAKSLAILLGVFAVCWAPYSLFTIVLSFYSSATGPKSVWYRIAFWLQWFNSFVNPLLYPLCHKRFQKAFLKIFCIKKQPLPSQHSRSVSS
Effect on: binding
Technique: radioligand binding
Concentration: 10 µM
Compound	inhibition
C[C@@]1(Cc2ccc(C#N)cc2)C(=O)N(c2cc(Cl)cc(Cl)c2)c2ncc(C(=O)NC3(c4nc(C5CCC5)no4)CC3)n21	27.6%
CN1CCN(C(=O)C(C)(C)c2ccc(C(=O)Nc3cn4cc(-c5ccncc5)ccc4n3)cc2)CC1	0.74%
CN([C@@H]1CCc2c(CC(=O)O)c3cc(S(C)(=O)=O)ccc3n2C1)S(=O)(=O)c1ccc(F)cc1	16%
Cc1nc(Cc2cccc(C(F)(F)F)c2)sc1-c1ccc(C(N)=O)nc1	7.74%
CC(=O)c1c(NS(C)(=O)=O)c2cc(-c3ccc(Cl)cc3)c(-c3ccc(Cl)cc3Cl)nc2n(C)c1=O	-13.6%
COc1cccc(CNC(=O)c2nc3scc(COCc4ccc(C(=O)O)cc4)c3c(=O)[nH]2)c1	17.6%
Cc1nccc(COC(=O)N2C[C@@H]3[C@@H](CNC(=O)c4ccc5[nH]nnc5c4)[C@@H]3C2)n1	7.45%
COc1cc(-c2cn(C3CCc4ccccc4N(CC(F)(F)F)C3=O)nn2)ccc1-n1ccc(C)n1 (stereo not drawn)	9.63%
COCc1nc2cnc3cc(-c4c(C)noc4C)c(OC[C@H]4CCNC4)cc3c2n1[C@H](C)c1ccccc1	29.3%
O=C(Nc1ccc(-n2nc(-c3cccnc3)cc2C(F)(F)F)cn1)c1ccc(-c2ccccc2)c(F)c1	-9.32%
Cc1cc(C)c(-n2ccn3nc(-c4cccnc4)cc23)cc1NC(=O)c1cc(C#N)cc(S(F)(F)(F)(F)F)c1	11.9%
Cc1cc(-n2nc(Cc3cc(F)cc(C(F)(F)F)c3)nc2C)ccc1C(N)=O	1.73%
Nc1c(C(=O)NCc2ccc(C(=O)NCCCC3CCCCC3)cc2)cnn1-c1ccccc1	-28%
C[C@@H]1CN(c2cc(-c3nn(C)c4ccc(OC5(C)CC5)cc34)ncn2)C[C@H](C)O1	-16.2%
O=C(Nc1cccnn1)N1CCC(=Cc2cccc(Oc3ccc(C(F)(F)F)cn3)c2)CC1	17.3%
CCOCCn1cc(C(=O)Nc2ccc(-n3nc(-c4cccnc4)cc3C(F)(F)F)cn2)ccc1=O	48.6%
Cc1nc(C2CCN(C(=O)c3ccc(OC(F)(F)F)cc3N)CC2)c2ncc(N3CCN(C)CC3)cc2n1	-5.28%
CC(=O)N1CCC(c2ccc(C(=O)NC(=N)N)cc2C(F)(F)F)CC1	7.11%
CC(=O)Nc1nc(CN2CCC[C@H](Cc3cc(C)nc(C)c3)C2)cs1	-0.6%

Study 3
Species: mouse
Medium: microsomes or S9
Concentration: 2 µM
Time: 0.5 h
SMILES	remaining compound [%]
Cc1ccn(-c2ccc(NS(=O)(=O)c3ccc(C4CNC(=O)C4)cc3)cc2)n1 (stereo not drawn)	> 100
Cn1cnc2cc(N3CC(=O)C(c4nc(-c5ccccc5)cs4)=C3N)ccc21	70.5
CN1CCN(c2nc(Nc3ccc(F)cc3)nc(Nc3ccc(F)cc3)n2)CC1	32.9
O=C(O)C[C@]1(C(=O)NCc2ccccc2)CC(/C=C/c2ccccc2)=NO1	> 100
COc1ccccc1N1C(=N)C(C)(C(C)C)NC1=O (stereo not drawn)	93.6

Study 4
Cell line: HaCaT
Concentration: 100 µM
Time: 36 h
SMILES	viability [%]
CCCNC(C)C(=O)Nc1ccccc1C (stereo not drawn)	93.4
COc1cc(C[C@H]2C(=O)OC[C@@H]2Cc2ccc(OC)c(OC)c2)ccc1O	75.7
CN(C)CCn1nnnc1SCC1=C(C(=O)O)N2C(=O)[C@@H](NC(=O)Cc3csc(N)n3)[C@H]2SC1	112
Cc1cc(C2CCCCC2)n(O)c(=O)c1	8.05
CC(=O)OC(C)C[N+](C)(C)C (stereo not drawn)	92.8
Cc1ncc([N+](=O)[O-])n1CCO	73.1
CC(=O)O[C@H]1C[C@@H]2CC[C@@H]3[C@H](CC[C@@]4(C)[C@H]3C[C@H]([N+]3(C)CCCCC3)[C@@H]4OC(C)=O)[C@@]2(C)C[C@@H]1N1CCCCC1	90.4

Other studies, line by line
SMILES	test	system	conditions	endpoint	value
CC(C)n1cnc(-c2ccc(F)cc2)c1-c1ncc(C(=O)Nc2ccc(N3CCN(C)CC3)cc2)[nH]1	refers to: grade ≥3 events	patients with idiopathic pulmonary fibrosis	30 mg twice daily, trial, without standard of care	patients with serious adverse event	20%

For quick reference, copied from above (study 2):
Compound	inhibition
CN([C@@H]1CCc2c(CC(=O)O)c3cc(S(C)(=O)=O)ccc3n2C1)S(=O)(=O)c1ccc(F)cc1	16%
Cc1nc(Cc2cccc(C(F)(F)F)c2)sc1-c1ccc(C(N)=O)nc1	7.74%
CC(=O)c1c(NS(C)(=O)=O)c2cc(-c3ccc(Cl)cc3)c(-c3ccc(Cl)cc3Cl)nc2n(C)c1=O	-13.6%
COc1cccc(CNC(=O)c2nc3scc(COCc4ccc(C(=O)O)cc4)c3c(=O)[nH]2)c1	17.6%
Cc1nccc(COC(=O)N2C[C@@H]3[C@@H](CNC(=O)c4ccc5[nH]nnc5c4)[C@@H]3C2)n1	7.45%
COc1cc(-c2cn(C3CCc4ccccc4N(CC(F)(F)F)C3=O)nn2)ccc1-n1ccc(C)n1 (stereo not drawn)	9.63%
